Published values collected from several papers.
Parts stem from different laboratories: compare values within a part only.

Block 1
Target: Centromere-binding protein 1, full length, His-tagged (CBF1, Saccharomyces cerevisiae, UniProt P17106, residues 1-351)
Sequence of UniProt P17106 (whole entry, looked up): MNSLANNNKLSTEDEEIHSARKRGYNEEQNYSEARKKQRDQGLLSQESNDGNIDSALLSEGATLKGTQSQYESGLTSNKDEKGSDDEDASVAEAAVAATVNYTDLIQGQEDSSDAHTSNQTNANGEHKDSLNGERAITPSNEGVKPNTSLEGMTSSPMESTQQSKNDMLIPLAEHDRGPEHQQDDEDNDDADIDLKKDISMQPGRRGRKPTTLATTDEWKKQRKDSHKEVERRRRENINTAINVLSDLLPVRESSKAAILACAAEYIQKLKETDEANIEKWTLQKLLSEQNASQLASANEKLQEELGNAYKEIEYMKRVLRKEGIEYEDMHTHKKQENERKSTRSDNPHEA
Method: competition protein-binding microarray
Molecule type: double-stranded DNA, one strand shown
Matrix: in vitro
Concentration: 2 µM
Notes: whole 60-bp probe, lowest competitor level
Together with: Pho4 competitor, 0.05 µM
Direction: higher = stronger binding
Oligonucleotide	fluorescence intensity
AGCACCACAGCGTACCATGTGCGCTACGAGGCCTCAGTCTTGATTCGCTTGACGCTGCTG	89 a.u.
TGTACACATAATGGACACGTTTAACAATTAGTGAGCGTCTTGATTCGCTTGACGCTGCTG	153 a.u.
CTAACGAAGGTTTTTCACGTGACATACAAGCCAAGTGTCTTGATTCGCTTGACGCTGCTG	5330 a.u.
GCTCCCTCAGCCCCGGGCGTGCTTTGACGCTATTCCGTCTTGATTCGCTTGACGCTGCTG	44.4 a.u.
TTATCACCGTAATGGCCCAGATTAATGGCGATCCTTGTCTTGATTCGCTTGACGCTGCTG	66.6 a.u.
TTGCATAGGCAGCATATCGCCCCCAGTAATCATTGGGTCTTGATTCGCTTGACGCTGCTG	72.3 a.u.
AGAGGGCGGCACCATCACGATCCCTCTGCCTTTGAAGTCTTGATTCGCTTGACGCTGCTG	76.8 a.u.
CGGGGTTAAGTTTGTTGTGTGGGTGGCTTGCAGCAGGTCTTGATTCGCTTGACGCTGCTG	72.1 a.u.

Block 2
Target: Myc proto-oncogene protein, bHLH-zipper, MAX partner unstated (MYC, Homo sapiens, UniProt P01106, residues 368-449)
Sequence of UniProt P01106 (368-449, looked up): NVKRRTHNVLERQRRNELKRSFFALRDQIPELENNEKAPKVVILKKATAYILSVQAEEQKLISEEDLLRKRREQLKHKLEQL
Method: protein-binding microarray
Molecule type: double-stranded DNA, one strand shown
Matrix: in vitro
Concentration: not given
Notes: k-mer, scored over probes, only values ≥0.25
Direction: higher = stronger binding
Oligonucleotide	E-score
ACGTGTGA	0.379
ACGACATG	0.279
CACGACAA	0.263
CGCAACCA	0.259
CGCGGCGC	0.251
TGCACGCA	0.348
CACGCGCA	0.435
CAACGTGC	0.432

Block 3
Target: Replicase polyprotein 1ab, nsp13 helicase (rep, Severe acute respiratory syndrome coronavirus 2, UniProt P0DTD1)
Mode: inhibitor
Concentration: 20 µM
Compound	inhibition [%]
CC(C)c1ccc(CC(=O)N2CCC[C@@H](c3cccc(OC(C)(C)C(=O)O)c3)C2)cc1	1.87
CC(=O)NCCc1c[nH]c2ccccc12	0.89
NNCCc1ccccc1	0.01
NC(=O)NC1NC(=O)NC1=O (centres unmarked)	-1.62
O=C(OCCO)c1ccccc1O	-0.49
CCc1cccc(N(C)C(N)=Nc2cccc3ccccc23)c1	5.37
COc1cc2nc(N3CCC(N4CCCCC4)CC3)nc(NC3CCCCCC3)c2cc1OC	32.9
O=C(O)c1cc(O)c2c(c1)[C@H]([C@H]1c3cc(C(=O)O)cc(O)c3C(=O)c3c(O[C@@H]4O[C@H](CO)[C@@H](O)[C@H](O)[C@H]4O)cccc31)c1cccc(O[C@@H]3O[C@H](CO)[C@@H](O)[C@H](O)[C@H]3O)c1C2=O	12
COc1ccc(CNC(=O)c2cc(-c3cncc(C)c3)ncc2-c2nccs2)nc1OC	4.42
CNC(=O)[C@H]1O[C@@H](n2cnc3c(NCc4cccc(I)c4)nc(Cl)nc32)[C@H](O)[C@@H]1O	4.28
N=C1N[C@H]2[C@H](CS[C@H]2CCCCC(=O)O)N1	-1.51
CC1Cc2ccccc2N1NC(=O)c1ccc(Cl)c(S(N)(=O)=O)c1 (centres unmarked)	2.69
COc1ccccc1N1CCN(CCCCN2C(=O)c3ccccc3C2=O)CC1	0.84
O=C(O)C(Cc1ccccc1)CN(O)C(=O)Cc1ccccc1 (centres unmarked)	4.43
COc1ccc(C2=N[C@@H](c3ccc(Cl)cc3)[C@@H](c3ccc(Cl)cc3)N2C(=O)N2CCNC(=O)C2)c(OC(C)C)c1	10.5
CCOc1ccc(-c2nc(-c3cccc4c3CCC4NCCO)no2)cc1OCC (centres unmarked)	20.2
Cc1nc(NS(=O)(=O)c2ccc(N)cc2)oc1C	1.11
CCNC(=O)Nc1ccc(-c2nc3c(c(N4CCOC[C@@H]4C)n2)CCN(C2COC2)C3)cc1	3.06
CC(NCCC(c1ccccc1)c1ccccc1)c1ccccc1 (centres unmarked)	-1.31
O=S(=O)(O)c1cc(O)ccc1O	5.75
N#Cc1ccc2[nH]cc(CCCCN3CCN(c4ccc5oc(C(N)=O)cc5c4)CC3)c2c1	5.01
CC(CN(C)C)CN1c2ccccc2CCc2ccccc21 (centres unmarked)	3.46
CCN(CC)CCNC(=O)c1c(C)[nH]c(/C=C2\C(=O)Nc3ccc(F)cc32)c1C	14.5
CC[C@@H]([C@H](C)O)n1ncn(-c2ccc(N3CCN(c4ccc(OC[C@@H]5CO[C@@](Cn6cncn6)(c6ccc(F)cc6F)C5)cc4)CC3)cc2)c1=O	10.7
Nc1c2ccccc2nc2ccccc12	-10.3

Block 4
Target: Replicase polyprotein 1ab, main protease (rep, Severe acute respiratory syndrome coronavirus 2, UniProt P0DTD1)
Observed: enzyme activity
Mode: inhibitor
Notes: with DTT
SMILES	IC50 [µM]
C=C1C(=O)O[C@H]2[C@H]1CC/C(C)=C/CC[C@@]1(C)O[C@@H]21	> 20
O=c1c(O)cccc2cc(O)c(O)c(O)c12	> 20
COC(=O)CC[C@H](NC(=O)[C@H](CC(=O)OC)NC(=O)OCc1ccccc1)C(=O)N[C@H](C(=O)N[C@@H](CC(=O)OC)C(=O)CF)C(C)C	0.01
O=C(/C=C/c1ccc(O)c(O)c1)O[C@H](Cc1ccc(O)c(O)c1)C(=O)O	> 20

Block 5
Cell line: HEK-293T-ACE2
Concentration: concentration not given
Baseline: vehicle
Compound	cell number [%]
Cl.N=C(N)NN	104
Br.CN1[C@@H]2CC[C@H]1C[C@@H](OC(=O)C(O)c1ccccc1)C2 (some centres unmarked)	105
C[C@H]1O[C@]2(CS1)CN1CCC2CC1.C[C@H]1O[C@]2(CS1)CN1CCC2CC1.Cl.Cl.O	95.2
C[C@@H]1CCO[C@H]2Cn3cc(C(=O)NCc4ccc(F)cc4F)c(=O)c([O-])c3C(=O)N12.[Na+]	105
CCCCCCCCc1ccc(CCC(N)(CO)CO)cc1.Cl	78.5

For quick reference, copied from above (block 2):
Oligonucleotide	E-score
ACGACATG	0.279
CGCGGCGC	0.251
CACGCGCA	0.435
CACGACAA	0.263
ACGTGTGA	0.379
TGCACGCA	0.348
CAACGTGC	0.432
